Experimental data collected from several papers.
Parts stem from different laboratories: compare values within a part only. Changes are numbered by the printed parent chain.

Set 1
Target: CCNB2, cyclin fold, Cln2 fusion (human)
Method: yeast growth competition, sequencing
Medium: yeast
Notes: weak parent motif
Relative to: not given
Reading: higher = stronger binding
Starting sequence: CDKN1B docking peptide (human); PSACRNLFGPVDH; partner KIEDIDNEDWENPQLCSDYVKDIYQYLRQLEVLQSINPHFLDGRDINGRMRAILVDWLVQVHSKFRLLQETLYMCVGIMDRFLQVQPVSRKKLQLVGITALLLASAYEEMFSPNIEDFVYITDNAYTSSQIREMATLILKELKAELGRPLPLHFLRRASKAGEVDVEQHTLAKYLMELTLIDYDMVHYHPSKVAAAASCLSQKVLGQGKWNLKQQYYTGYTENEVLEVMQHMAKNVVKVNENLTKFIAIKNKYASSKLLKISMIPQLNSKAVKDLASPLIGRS
Change	normalised enrichment score
S2W	0.308
P1L	-0.123
C4V	0.192
D12R	0.248
F8A	-0.0651
S2F	-0.153
V11A	0.107
H13T	-0.0159
F8Q	0.0803
A3D	-0.302
P1I	-0.282
C4Y	0.384
A3F	0.61
A3G	0.108
G9K	0.802
H13I	-0.241
N6Q	0.202
V11Y	-0.264
A3T	-0.289
C4L	0.69
S2Y	-0.0966
G9F	0.326
R5A	-0.566
D12I	-0.063
S2H	-0.294

Set 2
Target: RNA binding protein fox-1 homolog 2, RRM domain, GST-SBP tag (RBFOX2, Homo sapiens, UniProt O43251-10, residues 100-194)
Method: RNA Bind-n-Seq
Form: RNA
Medium: in vitro
Concentration: 365 nM
Notes: natural RNA segment, single round, ends assumed
Relative to: no-protein control
Reading: higher = stronger binding
Constant ends, left off below: GGGAGUUCUACAGUCCGACGAUC … UGGAAUUCUCGGGUGCCAA
Residues (chain): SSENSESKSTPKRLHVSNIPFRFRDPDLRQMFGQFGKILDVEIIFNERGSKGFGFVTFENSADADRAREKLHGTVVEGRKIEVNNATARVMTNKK
Sequence	RBNS enrichment (R)
UGAAGAUCUUGGAUGAGCCCGUGGUCUUUUGUGUCAUCUACGAAGCUGUGGGACUAAGCAGCUGUAGGACCUCAGAAUGGGCAAGGACAGUCUGUGAGAGGGAGUCUCUC	0.466
GUCCCUGUGGCACCUGUAACUGGCCAUAGUGUCUUUCUGGUCUGUGUGUUCUUCCAGCCAGCCUUGGGCUUUGGGCCCAGCCAGGCUCACACCCAGAAAGGGGUGUCCUG	0.478
CCUUUUCUUCCUUUGUCCCGUUGUCGAGGUUUUUUCAAAUAGCGUGUUGUUCAGUAUGCAAAUCAAUUAUUUUAAGAAUCGCUUUUGUAAAUAUCUUUGUGAAUAUUUUA	1.18
UCCCCGGUUCUGGAAAUCAUGUUCUCCUCACUCAUGGUGACAAGCUAAGAAAGCUGAACAAAGGGAGAGACGAGAGCGCCUGAAGCCAGGAGCUCCUUUACUAUCUUUCU	0.243
UCUAGACAGUAGACAAGGACCCUUCUACUGAACCUCCAAGGAAAAGAAGAAGGAAAAGAAGAAGUGCUUUUCAAAUCUUUCAAAGGGCUACAUGUAACCAUCUGGAAUGA	0.366
GAAGCUGGGACUACAGGCGCCCGCCACCACGCCCGGCUAAUUUUUUUGUAUUUUUAGUAGAGACGGGGUUUCACUGUGGUCUCGAUCUCCUGACCUCGUGAUCCGCCCGC	0.314
CCCGGCUGGGAGUGACAGGGUGCUUCUUAGAUUCUAUUGGUCCUUCUCUCAUUCUCCGAACUUACUCCUUUUUAUGGGUAAGUCAACUAGGUUUACAGUCCCUUAUUUUU	0.448
AGUGGGCUACUAGAGACCUCUGACCCCAGCAGCACUGGCUUGCCCUCAUAUGUGGGGUGUAGUCACGUCAGUGACUUCCUGGGAAUUGCUUGUUUCAGAUCAUAUUGAUC	6.83
GAUUUUUUUUUUAUAGUUUAAAUAAAGUCAGCUGAAUCUACAUGUCUCUUGUUUUAUUUCUCUCUAAACUUGAAAACAGUAAAUCUGCAGAUACUGUGAGGCACAGAUUA	0.511
AUGGUCAAUGGUUGUAAUCCCAGCACUACAAGGCAGGAAGAUCAUAAGUUCAAGGUCAUUCUUAUCUAUAUAAUGAGUUUAAGGCAGUCUAAGCUACAUGAGACCCUGUU	0.293
UAUCUGUCUACUUAGCGUGGCUGUUUUGAGGGACUGUCCCAUCAGUGAACAAACUGCAUGGCCUUGGAGAGAGACUCUGGGCUCUUGGCUCAGAUGUGUUCAUCAAAUAC	1.8
GCUCAGCUUGAAGACAAGUCACAGGUGGGCAAGUAUCACUGCCUGAACAGGGCUGUUAAAGGUCCAUGCUCAAAUACAAGGGAGACAACAGAUAGGACAGGACAGGGCUC	0.443

Set 3
Target: Histone acetyltransferase KAT6A, winged helix 2, GST fusion (KAT6A, Homo sapiens, UniProt Q92794, residues 85-181)
Method: protein binding microarray
Form: double-stranded DNA, one strand shown
Medium: in vitro
Concentration: not given
Notes: 8-mer, flanks averaged, mean of 2 arrays, mostly near background
Relative to: not given
Reading: higher = stronger binding
Target sequence (chain): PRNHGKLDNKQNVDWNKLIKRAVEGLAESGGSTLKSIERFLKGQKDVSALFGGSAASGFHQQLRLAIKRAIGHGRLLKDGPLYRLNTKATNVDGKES
Sequence	E-score
CTTGCCGA	0.179
CTTTGATC	-0.0618
CTAGCAAC	0.112
ACCGTTCA	-0.191
CTAATATC	0.0283
AGACAAAA	-0.0495
GAGAGCCA	0.14
GCCACACC	-0.0163
CTCGCGCC	0.259
ATCACGGC	0.0176
AGGCGTCA	-0.0176
AAGCGAGG	0.152
AGTTCAAA	0.0709
ATTCGTTA	-0.0648
CAAAGACA	0.182
CGCACACC	0.0244
AACAGAGA	0.0541
ACGGATTA	-0.168
CAGAAGGC	-0.0434
GCACATCA	-0.0599
CCTCTCAG	-0.119
GACCTACA	-0.0982
AGGAAATA	0.0337

Set 4
Target: Interferon regulatory factor 5, full length, phosphomimetic (IRF5, Homo sapiens, UniProt Q13568-2, residues 1-514, K96S/S451D/S453D/S456D/S462D)
Method: protein-binding microarray
Form: double-stranded DNA, one strand shown
Medium: in vitro
Concentration: 250 nM
Notes: 60-bp whole probe
Added: salmon DNA 0.4 mg/ml
Relative to: random background probes
Reading: higher = stronger binding
Constant ends, left off below: GCCTAGCAC … GTCTTGATTCGCTTGACGCTGCTG
Sequence	log fluorescence
GACGATTTCAGTCTCGAGATGTGCTAG	1.27 z-score
TTAGGTTCCCTTATCCTTTAGTGCTAG	-0.00475 z-score
TCAATTTTGAGACTCATACTGTGCTAG	0.135 z-score
GACGGTCTCCGACTGCTGACGTGCTAG	-0.766 z-score
GACGAACTCAGTCTCGAGACGTGCTAG	-0.0421 z-score
TTAGGACTGGTCTATCGGTTAGTGCTA	2.36 z-score
GACGGTATTGACTATCGGGACGTGCTA	1.59 z-score
TTAGATATCAGCCTGGATTAGTGCTAG	0.334 z-score
TTAGGGCTGGGTTTCGGTTAGTGCTAG	8.01 z-score
GACGGGCTCGGTCTCGGGACGTGCTAG	-0.679 z-score
GACAATCTCAGTATCGAGACGTGCTAG	2.09 z-score
GCCGGACTGCTTCTCCTGACGTGCTAG	-0.657 z-score
TCACCTGTACATCTATGACTGTGCTAG	0.103 z-score
GACGGACTGGGCATCGGGACGTGCTAG	-0.703 z-score
GACGGTACCGACTTTCGGGACGTGCTA	5.17 z-score
GACGGTATCGGTATCCGGACGTGCTAG	6.03 z-score
GGGCATTTGGTTAGCGTATAGTGCTAG	-0.435 z-score
AACACAAACCCGCTGGAGTTGTGCTAG	-0.282 z-score
TTAGATATCGGGTTTCGATTTGTGCTA	7.29 z-score
GACGAACTGAGTCTGGAGACGTGCTAG	-0.487 z-score
GAAAATTAGTGTTTTGCCCTGTGCTAG	1.11 z-score
TTAGCTTTCGACTATCGGTTAGTGCTA	9.87 z-score
GACGGTATCGGGACTGGGGGCGTGCTA	2.28 z-score
TGCAACATCCCAATGGCCCTGTGCTAG	-0.212 z-score
TTAGGTTTCGACTAACGGTTAGTGCTA	8.14 z-score

Single results of other studies
Substance	target	test	test system	conditions	how to read	measurement	value
PhoQ, residues 284 288 289 292 302 303 AGCYAI	PhoP, residues 12 14 15 18 19 TPLRH (Escherichia coli, UniProt P23836)	Sort-seq, refers to: YFP reporter	E. coli	PhoQ-PhoP variant library, added: 10 µM Mg2+	relative to: high Mg2+ state, higher = stronger signaling	fold induction	0.582

A few entries again (set 4):
Sequence	log fluorescence
GACGGTCTCCGACTGCTGACGTGCTAG	-0.766 z-score
GACGAACTCAGTCTCGAGACGTGCTAG	-0.0421 z-score
TTAGGACTGGTCTATCGGTTAGTGCTA	2.36 z-score
GACGGTATTGACTATCGGGACGTGCTA	1.59 z-score
TTAGATATCAGCCTGGATTAGTGCTAG	0.334 z-score
TTAGGGCTGGGTTTCGGTTAGTGCTAG	8.01 z-score
GACGGGCTCGGTCTCGGGACGTGCTAG	-0.679 z-score
